Experimental data pooled from the literature.
Values joined by “and” are separate records of one study, mostly repeats; a detail may differ.
JAK1 JH2 pseudokinase domain: Tyrosine-protein kinase JAK1, JH2 pseudokinase domain (JAK1, Homo sapiens, UniProt P23458)
JAK1: Tyrosine-protein kinase JAK1 (JAK1, Homo sapiens, UniProt P23458)
JAK1 JH1: Tyrosine-protein kinase JAK1, JH1 (JAK1, Homo sapiens, UniProt P23458)
JAK1 JH2: Tyrosine-protein kinase JAK1, JH2 (JAK1, Homo sapiens, UniProt P23458)

Structure (SMILES) | target | test | system | setting | how to read | endpoint | value
CNC1C[S+]2CC[S+]3CC[S+](C1)[Ru-4]321([N]=C=S)[n]2c3ccc(OC)cc3c3c4c(c5cc(F)c[n+]1c5c32)C(=O)NC4=O (centres unmarked) | JAK1 JH2 pseudokinase domain | KinomeScan | – | 0.1 µM | baseline: untreated | remaining binding | 98%
N[C@H]1CC[C@H](Nc2nccc(-c3cccnc3Oc3ccc(NC(=O)NC4CC4)c4ccccc34)n2)CC1 | JAK1 | kinobead competition pulldown | HEK293/HCT116 lysate mixture | 10 µM, 1 h, 4 °C | lower = stronger competition | log2 LFQ intensity | 22 and 22.1 and 21.9
CNC(=O)C1CCN(c2cc(C)c(F)cc2NC(=O)c2ccc(-c3cc(O)ccc3C)c(C)c2)CC1 | JAK1 JH1 | binding, competition with immobilised ligand | – | 1 µM | – | remaining binding | 100%
Cc1[nH]nc2c1N=C(c1ccccc1Cl)c1cnc(N3CCOCC3)cc1N2 | JAK1 | enzyme activity, inhibitor | – | 0.5 µM | – | inhibition | 97.6%
C=CC(=O)N1CCc2ccc(-n3c(=O)ccc4cnc5ccc(-c6cnn(C)c6)cc5c43)cc21 | JAK1 JH2 pseudokinase domain | KINOMEscan | – | 1 µM | baseline: DMSO control | remaining binding | 100%
Cc1c[nH]c2nccc(-c3ccc(C(=O)N[C@@H]4c5c(F)cc(C(F)F)cc5C[C@@H]4O)cn3)c12 | JAK1 JH1 | binding, competition with immobilised ligand | – | 3 µM | – | remaining binding | 32%
COc1cc(-n2cc3cc(F)cc(C(N)=O)c3n2)cc(Cl)c1C1CC(O)(CCO)Cc2ccccc21 (centres unmarked) | JAK1 | enzyme activity, inhibitor | – | 10 µM | – | inhibition | 4.45%
C=CC(=O)Nc1cccc(-c2cnc3[nH]cc(C(=O)NC(C)(C)C)c3n2)c1 | JAK1 | kinase activity | – | 0.1 µM | – | inhibition | 5% and 4%
Cc1cccc(O[C@H]2CCC[C@@H](C(C)CNCc3ccncc3)C2)c1 (relative stereo) | JAK1 | kinase activity, kinome panel screening | – | 10 µM | – | inhibition | -5%
COc1cc(Nc2nccc(-c3cnn4nc(OC)ccc34)n2)cc(C(F)(F)F)c1 | JAK1 JH2 | binding, competition with immobilised ligand | – | 1 µM | – | remaining binding | 85%
COc1c(Cl)cccc1Nc1c(-c2ccncc2C#C[C@@]2(C)CCCN2C(=O)/C=C/CN(C)C)[nH]c2c1C(=O)NCC2 | JAK1 | binding, competition with immobilised ligand | – | 3 µM | – | remaining binding | 95%
CN1CC[C@@H](COc2cnc(C#N)cc2-c2ccn3nc(NC(=O)C4CC4)cc3c2)C1 | JAK1 | enzyme activity, inhibitor | – | 1 µM | – | inhibition | 12%
CC(C)=CC1OC(C)(C)C2C=C3C(=O)C(Cl)=CC(O)C3C3C(O)C4OC4C(=O)C132 (centres unmarked) | JAK1 JH2 | cell-free assay, competition with immobilised ligand | – | 10 µM | – | remaining binding | 98%
O=C(Nc1ccc(Oc2ncnc3[nH]cc(-c4ccccc4)c23)c(F)c1)c1c2n(n(-c3cc(F)ccc3F)c1=O)CCCC2 | JAK1 | enzyme activity, inhibitor | – | 0.5 µM | – | inhibition | 15%
Cc1cnc2nc1Nc1cccc(c1)COC/C=C/COCc1cc(ccc1OCCN1CCOCC1)N2 | JAK1 JH2 | cell-free assay | – | 0.1 µM | – | remaining signal | 58%
CN1CCN(Cc2ccc(-c3ccc(CO[C@H]4CCC[C@@H]4NC(=O)c4cc(-c5cnn(C)c5)cnc4N)cc3)cc2)CC1 | JAK1 | enzyme activity, inhibitor | – | 0.1 µM | – | inhibition | -10%
NC(=O)[C@@H](O)C[C@H]1CCc2sc3ncnc(O[C@H]4CC[C@H](N5CCOCC5)CC4)c3c21 | JAK1 | enzyme activity, inhibitor | – | 10 µM | – | inhibition | -11%
C=CC(=O)N1CCCC(n2c(=O)c3ncccc3n(Cc3ccc(Oc4ccccc4)cc3)c2=O)C1 (centres unmarked) | JAK1 JH2 | binding, competition with immobilised ligand | – | 1 µM | – | remaining binding | 46%
Nc1ncc2c(n1)-c1c([nH]c3ccc(C4=CCOCC4)cc13)CCC2 | JAK1 JH1 | binding, competition with immobilised ligand | – | 1 µM | – | remaining binding | 90%
CNC(=O)C[C@H](Cc1ccc(C#N)cc1)NC(=O)c1cc(-c2ccc(CN[C@H](C)c3ccc(C)cc3)o2)ccc1Cl | JAK1 JH1 | enzyme activity, inhibitor | – | 1 µM | – | activity vs control | 107%
CS(=O)(=O)Nc1cccc(-c2csc3cnc(Nc4ccc(N5CCN(CCCCCOc6cccc7c6C(=O)N(C6CCC(=O)NC6=O)C7=O)CC5)cc4)nc23)c1 (centres unmarked) | JAK1 JH2 pseudokinase domain | probe labelling, inhibitor, KiNativ chemoproteomics | MOLT-4 | 1 µM | – | inhibition | 3.55%
CCn1cc(C(=O)O)c(=O)c2c(N)c(F)c(NC3CCCCC3)cc21 | Tyrosine-protein kinase JAK1, JH1-JH2 domains (JAK1, Homo sapiens, UniProt P23458) | kinase activity | – | 0.1 µM, added: ATP at Km | – | inhibition | 4%
CCN1CCN(Cc2ccc(C(=O)Nc3ccc(C)c(NCc4cnc5[nH]ccc5c4OC)c3)cc2C(F)(F)F)CC1 | JAK1 JH1 | binding, competition with immobilised ligand | – | 1 µM | – | remaining binding | 66%

For quick reference, copied from above:
Structure (SMILES) | target | test | system | setting | how to read | endpoint | value
Cc1cnc2nc1Nc1cccc(c1)COC/C=C/COCc1cc(ccc1OCCN1CCOCC1)N2 | JAK1 JH2 | cell-free assay | – | 0.1 µM | – | remaining signal | 58%
CN1CCN(Cc2ccc(-c3ccc(CO[C@H]4CCC[C@@H]4NC(=O)c4cc(-c5cnn(C)c5)cnc4N)cc3)cc2)CC1 | JAK1 | enzyme activity, inhibitor | – | 0.1 µM | – | inhibition | -10%
